Published values of several laboratories.
Several values in a cell are separate wells, animals, samples, runs or records. ± marks the error that the study gave.
kasA: 3-oxoacyl-[acyl-carrier-protein] synthase 1 (kasA, Mycobacterium tuberculosis, UniProt P9WQD9)
uncharacterized protein: uncharacterized protein (Vibrio cholerae, UniProt A0A0X1KYD0)
cydA with subunit CydB: cydA, with subunit CydB (Mycobacterium tuberculosis, UniProt L7N662)
Oprm1: Mu-type opioid receptor (Oprm1, Rattus norvegicus, UniProt P33535)
4'-phosphopantetheinyl transferase PptT: 4'-phosphopantetheinyl transferase PptT (Mycobacterium tuberculosis, UniProt O33336)
SLC6A3: Sodium-dependent dopamine transporter (SLC6A3, Homo sapiens, UniProt Q01959)

SMILES	tested on	assay	test system	setting	how to read	endpoint	value
CCCNC(=O)NS(=O)(=O)c1ccc(Cl)cc1	kasA	thermal stabilization, nanoDSF		100 µM		ΔTm	-0.34 °C
N=C(N)NCCC[C@@H]1NC(=O)[C@H](CCCCNC(=O)c2ccc(CNC34CNCCNCC(N)(CNCCNC3)CNCCNC4)cc2)NC(=O)[C@@H](Cc2ccc(O)cc2)NC(=O)[C@H](CC(=O)O)NC(=O)CNC1=O [copper-64 labelled]		ex vivo gamma counting	male athymic nude mouse, PC-3 xenograft, PC-3 tumour	7.4 MBq, 48 h, decay-corrected		tissue uptake	2.46 ± 1.03 %ID/g
CCCCCCCCCCCCCCCC(=O)OCC(CSC[C@H](N)C(=O)N[C@@H](CO)C(=O)N[C@@H](CCCCN)C(=O)N[C@@H](CCCCN)C(=O)N[C@@H](CCCCN)C(=O)N[C@@H](CCCCN)C(=O)Nc1ccc(Cn2c(O)nc3c(N)nc(NCCCC)nc32)cc1)OC(=O)CCCCCCCCCCCCCCC (some centres unmarked)	HFF-1			0.1 µg/mL, 48 h		viability	95.4%
Cc1ccccc1NC(=O)Nc1ccc(CC(=O)N[C@@H](CCCCNC(=O)/C=C/c2cccnc2)C(=O)N[C@@H](CCCC(=O)O)C(=O)NC2(C(=O)NCCOCCOCCOCCOCC(=O)N[C@@H](CCCCNC(=S)Nc3ccc(CCCN(CCN4CCN(CP(=O)(O)O)CCN(CP(=O)(O)O)CC4)CC(=O)O)cc3)C(N)=O)CCCCC2)cc1 [gallium-68 labelled]			mouse, liver	intravenous, 4 h post-injection		tissue uptake	4.6 ± 1 %ID/g
C[C@@H](O)[C@@H](CO)NC(=O)[C@@H](CCCNC(=N)N)NC(=O)[C@@H]1CCCN1C(=O)[C@@H]1CSSC[C@H](NC(=O)[C@H](Cc2ccccc2)NC(=O)CN2CCN(CC(=O)O)CCN(CC(=O)O)CCN(CC(=O)O)CC2)C(=O)N[C@@H](Cc2ccc(O)cc2)C(=O)N[C@@H](Cc2ccccc2)C(=O)N[C@@H](CCC(N)=O)C(=O)N[C@@H](CC(N)=O)C(=O)N1 [gallium-68 labelled]			human serum	2 h, 37 °C		radiochemical purity	> 99%
Nc1nc2c(ncn2[C@@H]2O[C@H](COP(=O)(O)OP(=O)(O)CP(=O)(O)O)[C@@H](O)[C@H]2O)c(=O)[nH]1	uncharacterized protein	nucleotide binding, isothermal titration calorimetry		concentration not given, no Mg2+		binding stoichiometry	~1
Cc1[nH]c2ccccc2c(=O)c1-c1ccc(Oc2ccc(OC(F)(F)F)cc2)cc1	cydA with subunit CydB	inhibitor		110 nM		specific activity	4.1 ± 0.2 µmol/min/mg
CN1CC[C@]2(C)c3cc(OC(=O)Nc4ccccc4)ccc3N(C)[C@H]12	human nicotinic α4β2 receptor	radioligand binding		10 µM, together with: [3H]epibatidine		inhibition	0.5%
CC(C)(C)NCCc1c[nH]c2cccc(O)c12.CC(C)(C)NCCc1c[nH]c2cccc(O)c12.O=C(O)/C=C/C(=O)O			C57BL/6J mice	subcutaneous, 0.03 mg/kg		head twitch count	4.5 ± 1
CCc1nc2ccc(Cl)cn2c1C(=O)Nc1cc(CO)c(C)cc1C	kasA	thermal stabilization, nanoDSF		100 µM		ΔTm	-0.18 °C
CC(NC(C)(C)C)C(=O)c1cccc(Cl)c1 (centres unmarked)	Voltage-dependent P/Q-type calcium channel subunit alpha-1A (Homo sapiens, UniProt O00555)	ion current, antagonist	HEK293	3 µM		inhibition	16%
CCCc1cc(O)c2c(c1)OC(C)(C)[C@@H]1CCC(C)=C[C@@H]21	TRPV3 (Homo sapiens, UniProt Q8NET8, R693F)	calcium uptake, agonist	HEK293S	mutant R693F, site 3		Hill coefficient	1.83 ± 0.58
COc1c(O)c(C)c(CC=C(C)C)c(O)c1OC	cydA with subunit CydB	biochemical				specific activity	5.3 ± 0.5 µmol/min/mg
C=CCNCCc1c[nH]c2cccc(O)c12.C=CCNCCc1c[nH]c2cccc(O)c12.O=C(O)/C=C/C(=O)O			C57BL/6J mice	subcutaneous, 0.1 mg/kg, 30 min		distance travelled	2910 ± 321 cm
c1ccc2cc([C@]34CNC[C@H]3C4)ccc2c1	SLC6A3 (Homo sapiens, UniProt Q01959, F326A)	inhibitor, [3H]dopamine uptake		100 pM, F326A mutant	reference: no inhibitor	dopamine uptake	78.4% and 106% and 103%
COC(=O)/C=C/C(=O)N[C@@H]1CC[C@@]2(O)[C@H]3Cc4ccc(O)c5c4[C@@]2(CCN3CC2CC2)[C@H]1O5	Oprm1	covalent, radioligand binding after TCA denaturation	N2a cell membranes	1.5 nM, 75 min, together with: 200 mM NaCl		irreversible specific binding	63.6 ± 2.97%
Oc1ccc2c3c1O[C@H]1c4oc5ccccc5c4C[C@@]4(O)[C@@H](C2)N(CC2CC2)CC[C@]314	Trpm7 (Mus musculus, UniProt Q923J1)	Ca2+ influx, activator, aequorin	HEK-293T			Hill coefficient	1.19 ± 0.14
Cc1ccc(C(=O)O)cc1S(=O)(=O)Nc1ccc2cnn(C(C)C)c2c1	kasA	thermal stabilization, nanoDSF		100 µM		ΔTm	-0.23 °C
Oc1ccc2c3c1O[C@H]1[C@@H](O)CC[C@@]4(O)[C@@H](C2)N(CC2CCC2)CC[C@]314	GPR35 (Homo sapiens, UniProt Q9HC97)	β-arrestin recruitment, TANGO luminescence		concentration not given	reference: basal luminescence	log2 fold change	0.124
CCCCCCCCCCc1c(C)c(O)c(OC)c(OC)c1O	cydA with subunit CydB	enzyme activity, biochemical				Km	21.5 µM and 19.3 µM
CCN(CC)C12C3CCC4C3C3C(CCC31)C42	Matrix protein 2 (Influenza A virus, UniProt P0DOF5)			100 µM, pH 5.5, cell-based		inhibition	0%
CN[C@@H](C)[C@H](O)c1ccccc1	4'-phosphopantetheinyl transferase PptT	inhibitor		concentration not given		enzyme activity	inactive
NCCc1ccc(Oc2ccc(O)cc2)c(I)c1	Trace amine-associated receptor 1, with DAT (Macaca mulatta, UniProt Q8HZ64)	CRE-luciferase reporter, agonist	TAAR1-DAT co-expressing cells	10 µM, 18 h	reference: vehicle	reporter activity	760%
O=C(c1ccc(Cl)cc1)N1CCN2C(=O)N(OC(=O)N3CCOc4ccccc43)C(=O)C2C1 (centres unmarked)	Probable serine carboxypeptidase CPVL (CPVL, Homo sapiens, UniProt Q9H3G5)	MS-based ABPP	SW-620 conditioned medium	10 µM, 1 h, 37 °C	reference: compound over DMSO, lower = more inhibition	mean protein ratio	1.09

SMILES	tested on	assay	test system	setting	how to read	endpoint	value
Clc1cc(Cl)cc(N2CCNCC2)c1	CHRM3 (Homo sapiens, UniProt P20309)	ERK1/2 phosphorylation, agonist	CHO cells			Emax	< 10%
Oc1cccc([C@]23CCC[C@H]([C@H]2O)N(CC=Cc2ccccc2)CC3)c1	Oprm1	agonist	C6 cells expressing mu opioid receptor	10 µM	reference: DAMGO	efficacy	20 ± 6%
COc1ccc(N2C(=O)N(c3c(C)cccc3Cl)Cc3cnc(Nc4ccc(C5CCN(C)CC5)cc4OC)nc32)nc1	RIPK2 (Homo sapiens, UniProt O43353)	kinase activity		0.5 µM		inhibition	77%
CCC[C@@H](C(=O)c1ccc(C)cc1)N1CCCC1	SLC6A3	DAT-mediated current recovery, electrophysiology	human DAT-expressing cells	together with: 30 µM dopamine		koff	0.032 s⁻¹
CCCCCCCC[C@H]1O[C@H]1C/C=C/C=C/[C@H](O)CC(=O)NC1=C[C@](C)(CC)OC1=O	Na(+)-translocating NADH-quinone reductase subunit B, whole Na+-NQR complex (nqrB, Vibrio cholerae serotype O1, UniProt Q9KPS2)	isothermal titration calorimetry		20 °C, 50 µM		ΔH	-25 ± 0.98 kcal/mol
CN1CCN(c2cc(-c3ccncc3)c(-c3ccc4ccccc4c3)nn2)CC1	MCHR2 (Homo sapiens, UniProt Q969V1)	antagonist, FLIPR		10 µM		inhibition	28.3%
Clc1cccc(N2CCNCC2)c1Cl	CHRM1 (Homo sapiens, UniProt P11229)	ERK1/2 phosphorylation, agonist	CHO cells			Emax	< 10%
COc1c(O)c(C)c(C/C=C(\C)CCC=C(C)C)c(O)c1OC	cydA with subunit CydB	enzyme activity, biochemical				Km	65.2 ± 15.3 µM
CCc1nc2ccc(Cl)cn2c1C(=O)N1C2CCC1CC2	kasA	thermal stabilization, nanoDSF		100 µM		ΔTm	0.1 °C
NCCc1ccccc1	Trace amine-associated receptor 1 (Macaca mulatta, UniProt Q8HZ64)	CRE-luciferase reporter, agonist	TAAR1-expressing cells	10 µM, 18 h	reference: vehicle	reporter activity	531%
COc1cc(N)c(Cl)cc1C(=O)NC1CCN(CCCOc2ccc(F)cc2)CC1OC (centres unmarked)	kasA	thermal stabilization, nanoDSF		100 µM		ΔTm	-0.2 °C
CCC(C(=O)c1ccc2c(c1)OCO2)N(C)C (centres unmarked)	Slc6a4 (Rattus norvegicus, UniProt P31652)	serotonin release	rat brain synaptosomes	together with: [3H]5-HT 5 nM		EC50	inactive
COc1cc(Nc2ncc(F)c(Nc3ccc4c(n3)NC(=O)C(C)(C)O4)n2)cc(OC)c1OC	Cathepsin D (CTSD, Homo sapiens, UniProt P07339)					IC50	> 10 µM
O=c1c2cc(Cl)ccc2[nH]c(=S)n1Cc1cccnc1	4'-phosphopantetheinyl transferase PptT	enzyme activity, inhibitor, preincubation and dialysis		concentration not given, overnight dialysis		activity recovery	~75%
C=CCN1CC[C@]23c4c5ccc(O)c4O[C@H]2C(=O)CC[C@]3(O)[C@H]1C5	LTB4R (Homo sapiens, UniProt Q15722)			concentration not given		inhibition	1.9%
COC(=O)[C@H]1[C@@H](OC(=O)c2ccccc2)C[C@@H]2CC[C@H]1N2C	Sodium channel protein type 4 alpha, BTX-activated (Oryctolagus cuniculus, UniProt G1SLL9)			concentration not given		mean closed time	515 ms and 492 ms
CCc1nc2ccc(Cl)cn2c1C(=O)NCC(O)c1cccc(C(F)(F)F)c1 (centres unmarked)	kasA	thermal stabilization, nanoDSF		100 µM		ΔTm	0.02 °C
Nc1nc2c(ncn2[C@@H]2O[C@H](COP(=O)(O)OP(=O)(O)O)[C@@H](O)[C@H]2O)c(=O)[nH]1	uncharacterized protein	nucleotide binding, isothermal titration calorimetry		concentration not given, with Mg2+		binding stoichiometry	~1
COC(=O)[C@@H](NC(=O)c1nn(Cc2ccc(F)cc2)c2ccccc12)C(C)(C)C	Cannabinoid receptor 1, with Gi1 (CNR1, Homo sapiens, UniProt P21554)	GTP turnover, agonist, measured: Gi1 Gα subtype				maximal efficacy	111%
CCn1ncc2ccc(NS(=O)(=O)c3cc(C(=O)O)ccc3C)cc21	kasA	thermal stabilization, nanoDSF		100 µM		ΔTm	-0.24 °C
C[C@H]1CN(c2n[nH]c3nc(N[C@H]4CC[C@H](NS(=O)(=O)CCC(F)(F)F)CC4)ncc23)CCO1	CHUK (Homo sapiens, UniProt O15111)	inhibitor, Kinobeads competition profiling		0.8 µM	reference: vehicle	relative abundance	1.09
CCc1nc2ccc(Cl)cn2c1C(=O)NC1CCC(=O)NC1C1CCCO1 (centres unmarked)	kasA	thermal stabilization, nanoDSF		100 µM		ΔTm	-0.09 °C
CCCC(C(=O)c1ccc2c(c1)OCO2)N1CCCC1 (centres unmarked)	SLC6A3	transporter current, inhibitor		together with: dopamine 30 µM		maximal inhibition rate (kapp)	1.99 s⁻¹
